# Assay results collected from several papers.
# Protocols differ between the studies behind these lines. Numbers after ± are the reported error.
Compound,test,test system,conditions,how to read,quantity,value
Cc1nsc(-c2nnc3n2CCN(C(=O)c2ccc(F)cc2)[C@@H]3C)n1,equilibrium dialysis,"rat, brain homogenate","5 µM, 4 h, pH 7.4",,brain fraction unbound,> 50%
Cn1cnc2c(F)c(Nc3ccc(Br)cc3Cl)c(C(=O)NOCCO)cc21,,"human, plasma","oral, dose not given, sequential zero-first-order absorption",,central volume of distribution,8.93 L
C[Si](C)(C)O[Si](C)(C)C,,,"concentration not given, temperature rise 30 °C",,change in log KOA,-0.6 log units
Cc1ccc([C@@H]2O[C@H](CO)[C@@H](O)[C@H](O)[C@H]2O)cc1Cc1ccc(-c2ccc(F)cc2)s1,refers to: inorganic phosphorus,Japanese type 2 diabetes patients,"100 mg, day 2, 24 h urine collection",baseline: baseline,urinary phosphate excretion change,51 mg
COc1ccc2[nH]c([S+]([O-])Cc3ncc(C)c(OC)c3C)nc2c1 (centres unmarked),,"healthy Chinese volunteers CYP2C19 RM, plasma","oral, 20 mg single dose, enteric-coated capsules",,AUC(0-t),247 ± 80.4 ng·h/mL
O=c1nc(N2CCN(CC3CCCCC3)CC2)sc2c([N+](=O)[O-])cc(C(F)(F)F)cc12,equilibrium dialysis,CD-1 mouse plasma,"1 µM, 18 h, pH 7.4",,fraction unbound,0.002
CC[C@H](C)[C@H](NC(C)=O)C(=O)N[C@H]1CSSC[C@@H](C(=O)N[C@H](C(N)=O)[C@@H](C)O)NC(=O)[C@H](CCCNC(=N)N)NC(=O)[C@H](Cc2c[nH]cn2)NC(=O)[C@H](Cc2cccc3ccccc23)NC(=O)CNC(=O)[C@H](Cc2c[nH]c3ccccc23)NC(=O)[C@H](CC(=O)O)NC(=O)[C@H](CCC(N)=O)NC(=O)[C@H](Cc2cn(C)c3ccccc23)NC(=O)[C@H](C(C)C)NC1=O,"isocratic RP-HPLC, C18","32% acetonitrile, phosphate pH 7.4, 1% TFA",25 °C,,retention factor,10.132 ± 0.005
COc1cc(N2CCC3(CCN(C)CC3)CC2)ccc1Nc1ncc(Cl)c(Nc2ccccc2P(C)(C)=O)n1,population PK model,human,"oral, final model without outliers",,Ka,1.06 h⁻¹
O=C(c1cccnc1-c1ccncc1)N1CCC(O)(Cc2ccccc2)CC1,,"healthy Japanese adults, plasma","oral, 100 mg twice daily, day 7",,Vz/F,2940 L
CC[C@H](C)CCCCC(=O)N[C@@H](CCN)C(=O)N[C@H](C(=O)N[C@@H](CCN)C(=O)N[C@H]1CCNC(=O)[C@H]([C@@H](C)O)NC(=O)[C@H](CCN)NC(=O)[C@H](CCN)NC(=O)[C@H](CC(C)C)NC(=O)[C@@H](Cc2ccccc2)NC(=O)[C@H](CCN)NC1=O)[C@@H](C)O,,"human, mild renal insufficiency, urine","intravenous, 0.75 mg/kg, 0-6 h, arithmetic mean",,urinary excretion,1.5%
Cc1c(C(=O)O)ccc2c3n(nc12)[C@@H]1[C@H](C3)N(CC2CC2)[C@@]2(C(=O)Nc3cc(Cl)ccc32)[C@H]1c1cccc(Cl)c1F,,"Chbb:Beagle dog, male, plasma",intravenous,,mean residence time,2.4 h
Cc1ccc(Sc2ccccc2N2CCNCC2)c(C)c1,refers to: ureteric calculus,healthy adult men,"oral, 10 mg daily, 12 days",,participants with TEAE,16.7%
CCCCC[C@H]1CC[C@H](c2ccc(OCC)c(F)c2F)CC1,,"rat, fetus","1000 ng/mL in perfusate, middle dose, mixture of 21 LCMs",,fetal accumulation,0.363 ± 0.616 ng/g
CC(C)Nc1nc2cc(Cl)c(Cl)cc2n1[C@H]1O[C@@H](CO)[C@H](O)[C@@H]1O,population PK model,human,"oral, 800 mg, no proton pump inhibitor",,Ka,0.697 h⁻¹
CC1(C)CCC(CN2CCN(c3ccc(C(=O)NS(=O)(=O)c4ccc(NCC5CCOCC5)c([N+](=O)[O-])c4)c(Oc4cnc5[nH]ccc5c4)c3)CC2)=C(c2ccc(Cl)cc2)C1,UPLC-MS/MS,"non-responders, good/moderate prognosis","oral, dose not given, 6 h, normalised to dose per body weight",,dose-normalised C6 (C6/D),0.333 ± 0.164 µg/mL per mg/kg
O=C1NCCc2nc(OCc3cccc(F)c3)ccc21,refers to: Writhing,"Sprague-Dawley rat, male","oral, 100 mg/kg, 1 h, score 0 none to 2 full",direction not given,Irwin test score,0
Cc1cc(C)c(CNC(=O)c2cc(Cl)c3c(c2C)O[C@@](C)([C@H]2CC[C@H](N(C)C)CC2)O3)c(=O)[nH]1,,human relapsed/refractory NHL,"oral, 200 mg once daily, onset after cycle 1 day 1",,disease progression grade ≥3,8.3%
CC(C)(C(=O)N1CCOc2c(C#N)cncc2C1)C(F)F,refers to: medical device site dermatitis,"human, both sexes","oral, 10 mg once daily, 14 days, multiple ascending dose",,subjects with TEAE,0%
COc1ccc2c(=O)n(C)c(-c3ccccc3)nc2c1,,"male Sprague-Dawley rat, stomach","oral, 30 mg/kg, 4 h",,tissue concentration,124 ng/g
Cl.[2H]C([2H])([2H])CC(=O)c1cnc(NC(=O)C2CC2)cc1Nc1cccc(-c2ncn(C([2H])([2H])[2H])n2)c1OC,,"human, fasted, multiple dose","oral, 10 mg once daily, tablet, day 1, geometric mean",,AUC(0-tau),631 ng·h/mL
O=C(Nc1nc2cccc(-c3ccc(CN4CCS(=O)(=O)CC4)cc3)n2n1)C1CC1,refers to: blood and lymphatic disorders,rheumatoid arthritis patients,"oral, 200 mg once daily, 4 weeks, any relatedness",,treatment-emergent adverse events,0%
N#Cc1ccc2c(c1)[C@H]1CCCN(C(=O)c3ccc4[nH]cnc4c3)[C@H]1C2,,"human, female","40 mg, day 7",,DHEA-S level,6.5 µmol/L
N#Cc1ccn2c(-c3ccncc3)c(-c3ccc(F)cc3)nc2c1,,CD1 mouse female,"oral, 25 mg/kg",,MRT,14 h
Nc1nc2c(nc([N+](=O)[O-])n2[C@@H]2O[C@H](CO)[C@@H](O)[C@H]2O)c(=O)[nH]1,"depurination, RP-HPLC",citrate-phosphate buffer 0.5 mM,"1240 min, pH 7, 37 °C",,nucleoside remaining fraction,0.506
CCOCc1nc(O)c(-c2nnc(Cc3ccc(Cl)cn3)o2)c(O)c1-c1c(OC)cccc1OC,,"rat, plasma","subcutaneous infusion, 0.192 mg/kg/day, day 7 after surgery",,steady-state plasma concentration,102 nM
O=[N+]([O-])c1ccc(-c2ccc(O)cc2)c2cccnc12,,"ICR mice male, plasma","intravenous, 1 mg/kg",,clearance,122 mL/min/kg
CCc1cc(C(=O)NC)c2nccc(N3CCc4c(cc(Cn5ccnc5)cc4-c4cn(C)nc4C(F)(F)F)C3=O)c2c1,,Sprague Dawley rat,"oral, 100 mg/kg once daily, day 6, 7-day toxicology study",,body weight,257.3 ± 1.5 g
CC[C@H](C)[C@H](NC(=O)[C@H](CCCNC(=N)N)NC(=O)[C@H](CCC(=O)O)NC(C)=O)C(=O)N[C@H]1CSSC[C@@H](C(=O)N[C@H](C(N)=O)[C@@H](C)O)NC(=O)[C@H](CCCNC(=N)N)NC(=O)[C@H](Cc2c[nH]cn2)NC(=O)[C@H](Cc2cccc3ccccc23)NC(=O)CNC(=O)[C@H](Cc2c[nH]c3ccccc23)NC(=O)[C@H](CC(=O)O)NC(=O)[C@H](CCC(N)=O)NC(=O)[C@H](Cc2cccc3ccccc23)NC(=O)[C@H](C(C)C)NC1=O,"isocratic RP-HPLC, C18","32% acetonitrile, phosphate pH 7.4, 1% TFA",25 °C,,retention factor,3.269 ± 0.004
CCCCc1ccc(C#Cc2ccc(OCC)cc2)cc1,,"rat, fetus","5000 ng/mL in perfusate, high dose, mixture of 21 LCMs",,fetal accumulation,0.833 ± 0.753 ng/g
C=CC(=O)Nc1cc(Nc2nccc(-c3cn(C)c4ccccc34)n2)c(OC)cc1N(C)CCN(C)C,storage stability,human dried blood spots,"5 h, on ice, high QC level",,recovery,97.9%
Cc1cc(-c2nnc(N)nc2-c2ccc(F)cc2)cc(Cl)n1,,"human patients, plasma","oral, 200 mg capsule once daily, multiple doses, arithmetic mean",,terminal half-life,12 h
NC1(C(=O)N[C@@H](CCO)c2ccc(Cl)cc2)CCN(c2nc[nH]c3nccc2-3)CC1,,metastatic CRPC patients,"dose not given, any grade, treatment-related, all doses, together with: enzalutamide 160 mg daily",,incidence of Erythema,6.7%
C=CC[C@@H]1/C=C(\C)C[C@H](C)C[C@H](OC)[C@H]2O[C@@](O)(C(=O)C(=O)N3CCCC[C@H]3C(=O)O[C@H](/C(C)=C/[C@@H]3CC[C@@H](O)[C@H](OC)C3)[C@H](C)[C@@H](O)CC1=O)[C@H](C)C[C@@H]2OC,,male Wistar Kyoto rat,"intraperitoneal, 0.5 mg/kg/day, day 18",baseline: vehicle,fractional chloride excretion increase,~1.5 fold
COc1ccnc(C(=O)NC(CO)C(=O)O)c1O (racemic),aerobic dark soil incubation,clay loam soil,"20 °C, modelling endpoint",,DT50,17.4 days
Cn1cc(Nc2nccc(-c3ccc4c(c3)CN(C3COC3)CC[C@H]4NC(=O)c3cn(C(C)(C)C)nn3)n2)cn1,,"human, whole blood","150 mg twice daily, day 14",baseline: pre-dose baseline,naive B cell count change,30.7%
C=CCN1CC(=O)N2[C@@H](Cc3ccc(O)cc3F)C(=O)N(Cc3cccc(N4CC(N5CCN(CC)CC5)C4)n3)C[C@@H]2N1C(=O)NCc1ccccc1,,advanced solid tumour patients,"oral, 80 mg twice daily, any grade, dose-escalation",,treatment-related AST increased,0%
CCOc1c([C@H](C)n2nc(C)c3c(N)ncnc32)cc(Cl)c(F)c1[C@@H]1CNC(=O)C1,refers to: QTcF ≤ 450 ms,previously treated B-cell malignancy,"oral, dose not given, all doses, overall population",,share of ECG observations,94.7%
O=C1Nc2ccc(Cl)cc2[C@@](C#CC2CC2)(C(F)(F)F)O1,,"human, plasma","oral, 600 mg, day 30, mean",,trough plasma concentration,2790 ng/mL
O=C([O-])CCCCCCCNC(=O)c1ccccc1O.[Na+],,healthy postmenopausal women,"oral, 300 mg, geometric mean, together with: oral contraceptive plus oral semaglutide",,AUC(0-24h),1820 ng·h/mL
O=C(O)CCC(=O)O.[2H]C([2H])([2H])Oc1cc(C)c2[nH]ccc2c1CN1CC[C@@H](C2CC2)C[C@H]1c1ccc(C(=O)O)cc1,multiple ascending dose,healthy Chinese subjects,200 mg once daily,,subjects with TEAE Constipation,50%
Cc1nn(CC(F)(F)F)cc1Nc1nccc(NCCCNC(=O)C2CCC2)n1,PAMPA,PBS,"5 h, pH 7.4",,effective permeability,2.39 ×10⁻⁶ cm/s
CN(C(=O)n1cnc(-c2cccnc2)c1)C1CCCCC1,,"Wistar rat, hippocampus","oral, 10 mg/kg/day of BIA 10-2474, 48 h, repeated 5 days",,concentration,9.5 ± 0.1 ng/g
Cc1ccc(C(=O)N(CCCN)C(c2nc3snc(C)c3c(=O)n2Cc2ccccc2)C(C)C)cc1 (centres unmarked),refers to: Dysphagia,human patients,"intravenous, 16 mg/day, CTCAE grade ≥3",,patients with adverse events,0%
Cc1cc(Nc2ccc(S(F)(F)(F)(F)F)cc2)n2nc(C(C)(F)F)nc2n1,,Plasmodium falciparum malaria patients,"oral, 400 mg",,adverse event Pyrexia,30.8%
Cn1cncc1-c1c(F)cncc1NC(=O)c1c(N)nn2cc(F)cnc12,two-compartment PK model,"xenograft-bearing mice, plasma",,,intercompartmental clearance,0.017 mL/min/kg
COc1ccc2c(c1)CN(C(=O)CCN1CCC(Cc3ccccc3)CC1)CC[S@@+]2[O-],telemetry,conscious dog,"intravenous, 2 mg/kg, 2 h",,heart rate,77 ± 12 beats/min
CCN1CCN(Cc2ccc(Nc3ncc(F)c(-c4cc(F)c5nc6n(c5c4)[C@H](C)CCC6)n3)nc2)CC1,,"human, plasma","500 mg single dose, mean",,CL/F,33.2 L/h
COc1c(N2C[C@@H]3CCCN[C@@H]3C2)c(F)cc2c(=O)c(C(=O)O)cn(C3CC3)c12,,healthy volunteers,"oral, 400 mg single dose, day 5, 0.50 h",,QTcI change from baseline,-5.9 ms
CCO[C@H]1CCN(Cc2c(OC)cc(C)c3[nH]ccc23)[C@H](c2ccc(C(=O)O)cc2)C1,,"human severe hepatic impairment, plasma","oral, 200 mg single dose, geometric mean",,total AUC(0-t),57700 ng·h/mL
CCN1/C(=C/C(C)=O)Sc2ccc(F)cc21,,cynomolgus monkey,"oral, 100 mg/kg, 0.5 h post-dose",baseline: pre-dose,PR interval change,101 ± 7.1%
